# Experimental data collected from several papers.
# Lines come from different studies, so protocols differ.
# FGFR2: Fibroblast growth factor receptor 2 (FGFR2, Homo sapiens, UniProt P21802)
# Sequence of UniProt P21802 (whole entry, unmodified, looked up): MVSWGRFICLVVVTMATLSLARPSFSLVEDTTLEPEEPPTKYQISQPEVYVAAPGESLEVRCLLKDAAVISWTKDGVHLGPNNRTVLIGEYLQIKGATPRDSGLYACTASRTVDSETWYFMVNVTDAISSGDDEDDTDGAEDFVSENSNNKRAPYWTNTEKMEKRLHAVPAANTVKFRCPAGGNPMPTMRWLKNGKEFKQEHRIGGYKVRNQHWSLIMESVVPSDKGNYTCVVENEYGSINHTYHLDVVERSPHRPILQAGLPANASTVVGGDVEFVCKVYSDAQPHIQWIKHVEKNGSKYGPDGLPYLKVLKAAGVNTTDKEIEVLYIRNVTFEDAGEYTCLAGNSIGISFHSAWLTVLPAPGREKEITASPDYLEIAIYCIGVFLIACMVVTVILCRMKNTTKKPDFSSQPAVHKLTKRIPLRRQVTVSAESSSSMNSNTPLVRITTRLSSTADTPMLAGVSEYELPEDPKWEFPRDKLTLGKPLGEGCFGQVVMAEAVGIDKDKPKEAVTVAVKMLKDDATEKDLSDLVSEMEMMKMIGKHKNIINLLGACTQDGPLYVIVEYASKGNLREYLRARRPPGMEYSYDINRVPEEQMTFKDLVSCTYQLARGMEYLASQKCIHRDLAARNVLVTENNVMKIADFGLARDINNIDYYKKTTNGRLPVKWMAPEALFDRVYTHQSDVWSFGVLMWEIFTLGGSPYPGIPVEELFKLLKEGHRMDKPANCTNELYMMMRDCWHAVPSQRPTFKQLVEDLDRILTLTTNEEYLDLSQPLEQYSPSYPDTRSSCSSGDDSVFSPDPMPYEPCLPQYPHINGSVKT
Compound,target,test,setting,how to read,endpoint,result
CCN1CCN(Cc2ccc(C(=O)Nc3ccc(C)c(NCc4cnc5[nH]ccc5c4OC)c3)cc2C(F)(F)F)CC1,FGFR2,"binding, competition with immobilised ligand",1 µM,,remaining binding,12%
CNC(=O)C[C@H](Cc1ccc(C#N)cc1)NC(=O)c1cc(-c2ccc(CN[C@H](C)c3ccc(C)cc3)o2)ccc1Cl,FGFR2,"enzyme activity, inhibitor",1 µM,,activity vs control,102%
COc1ccc(NC(=O)Nc2ccc3c(c2)C(=O)N(C(C)CO)CC(C)C(CN(C)Cc2ccc4c(c2)OCO4)O3)cc1 (stereo not shown),FGFR2,kinase activity,0.03 µM,baseline: control,remaining activity,101%
CNC1C[S+]2CC[S+]3CC[S+](C1)[Ru-4]321([N]=C=S)[n]2c3ccc(OC)cc3c3c4c(c5cc(F)c[n+]1c5c32)C(=O)NC4=O (stereo not shown),FGFR2,KinomeScan,0.1 µM,baseline: untreated,remaining binding,82%
Cc1cnc2nc1Nc1cccc(c1)COC/C=C/COCc1cc(ccc1OCCN1CCOCC1)N2,FGFR2,binding,0.1 µM,,remaining binding,79%
COc1ccc(C(=O)/C=C/c2ccccc2-c2c[nH]c3ccc(C#N)cc23)c(O)c1,FGFR2,"enzyme activity, inhibitor",20 µM,,inhibition,-1%
COc1cc(Nc2nccc(-c3cnn4nc(OC)ccc34)n2)cc(C(F)(F)F)c1,FGFR2,"binding, competition with immobilised ligand",1 µM,,remaining binding,100%
C=CC(=O)N1CCc2ccc(-n3c(=O)ccc4cnc5ccc(-c6cnn(C)c6)cc5c43)cc21,FGFR2,KINOMEscan,1 µM,baseline: DMSO control,remaining binding,92%
CC(C)=CC1OC(C)(C)C2C=C3C(=O)C(Cl)=CC(O)C3C3C(O)C4OC4C(=O)C132 (stereo not shown),FGFR2,"cell-free assay, competition with immobilised ligand",10 µM,,remaining binding,70%
CN1CCN(Cc2ccc(-c3ccc(CO[C@H]4CCC[C@@H]4NC(=O)c4cc(-c5cnn(C)c5)cnc4N)cc3)cc2)CC1,FGFR2,"enzyme activity, inhibitor",0.1 µM,,inhibition,-8%
C=CC(=O)Nc1cccc(-c2cnc3[nH]cc(C(=O)NC(C)(C)C)c3n2)c1,FGFR2,"enzyme activity, inhibitor",0.1 µM,,inhibition,40%
CN1CCN(c2ccc(Nc3ncc(Cl)c(Nc4ccccc4P(C)(C)=O)n3)cc2Br)CC1,FGFR2,"enzyme activity, inhibitor",0.1 µM,,inhibition,82.2%
Cc1nc2c(F)cc(-c3nc(Nc4ccc(CNC(=O)CCCCCCC(=O)NO)cc4)ncc3F)cc2n1C(C)C,"FGFR2 (Homo sapiens, UniProt P21802, N549H)","enzyme activity, inhibitor",1 µM,,inhibition,73%

# Repeated from above:
Compound,target,test,setting,how to read,endpoint,result
CN1CCN(Cc2ccc(-c3ccc(CO[C@H]4CCC[C@@H]4NC(=O)c4cc(-c5cnn(C)c5)cnc4N)cc3)cc2)CC1,FGFR2,"enzyme activity, inhibitor",0.1 µM,,inhibition,-8%
